{"data": "Published values pooled from the literature", "note": "Each numbered part is a random draw from the data of one study; scales do not carry over between parts."}
{"data": "Sample 1", "target": "Interferon regulatory factor 7, full length, phosphomimetic (IRF7, Homo sapiens, UniProt Q92985, residues 1-503, S471D/S472D/S475D/S476D/S477D/S483D/S484D/S487D)", "technique": "protein-binding microarray", "molecule type": "double-stranded DNA, one strand shown", "medium": "in vitro", "tested at": "2200 nM top", "notes": "60-bp whole probe", "added": "salmon DNA 0.4 mg/ml", "reference": "random background probes", "reading": "higher = stronger binding", "all sequences stand within": "GCCTAGCAC … GTCTTGATTCGCTTGACGCTGCTG", "Target sequence (chain)": "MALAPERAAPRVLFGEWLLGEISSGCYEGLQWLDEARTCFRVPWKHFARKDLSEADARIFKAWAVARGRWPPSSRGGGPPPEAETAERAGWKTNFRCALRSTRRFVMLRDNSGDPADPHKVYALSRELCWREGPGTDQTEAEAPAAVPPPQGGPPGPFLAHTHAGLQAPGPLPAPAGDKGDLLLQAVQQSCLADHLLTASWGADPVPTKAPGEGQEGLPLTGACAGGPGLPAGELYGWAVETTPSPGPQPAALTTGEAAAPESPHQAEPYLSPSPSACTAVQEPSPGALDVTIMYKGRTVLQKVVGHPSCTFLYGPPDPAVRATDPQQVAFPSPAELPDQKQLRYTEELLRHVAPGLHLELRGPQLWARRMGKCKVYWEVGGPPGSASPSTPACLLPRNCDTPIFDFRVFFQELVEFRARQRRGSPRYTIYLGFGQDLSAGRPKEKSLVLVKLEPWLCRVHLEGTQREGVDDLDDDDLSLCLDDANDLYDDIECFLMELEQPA"}
{"Oligonucleotide": "TTAGGTATCCGTTTCCTTTAGTGCTAG", "fitted relative affinity [z-score]": 1.98}
{"Oligonucleotide": "GACGAACTGGGGCATCGAGACGTGCTA", "fitted relative affinity [z-score]": -0.17}
{"Oligonucleotide": "CCGAGTCCCTATCTCCTCACGTGCTAG", "fitted relative affinity [z-score]": 1.21}
{"Oligonucleotide": "GAGGGTTTCCTTCTCCTGACGTGCTAG", "fitted relative affinity [z-score]": 1.34}
{"Oligonucleotide": "TTAGAACTGGGGTATCCATTAGTGCTA", "fitted relative affinity [z-score]": -0.17}
{"Oligonucleotide": "GACGATTTCAGTTTCGTGACGTGCTAG", "fitted relative affinity [z-score]": 4.48}
{"data": "Sample 2", "target": "Sal-like protein 4, full length isoform B (SALL4, Homo sapiens, UniProt Q9UJQ4-2, residues 1-616)", "technique": "universal PBM", "molecule type": "double-stranded DNA, one strand shown", "medium": "in vitro", "tested at": "not given", "notes": "8-mer, flanks averaged, mean of replicates", "reading": "higher = stronger binding"}
{"Oligonucleotide": "CCTTCCTA", "E-score": -0.0962}
{"Oligonucleotide": "CTTGCCGC", "E-score": -0.302}
{"Oligonucleotide": "CCGTCGCA", "E-score": -0.167}
{"Oligonucleotide": "ATCAGCGG", "E-score": -0.264}
{"Oligonucleotide": "GTCAACAC", "E-score": 0.0008}
{"Oligonucleotide": "CATATCGA", "E-score": 0.0338}
{"data": "Sample 3", "target": "RNA binding protein fox-1 homolog 2, RRM domain, GST-SBP tag (RBFOX2, Homo sapiens, UniProt O43251-10, residues 100-194)", "technique": "RNA Bind-n-Seq", "molecule type": "RNA", "medium": "in vitro", "tested at": "365 nM", "notes": "natural RNA segment, single round, ends assumed", "reference": "no-protein control", "reading": "higher = stronger binding", "Construct (chain)": "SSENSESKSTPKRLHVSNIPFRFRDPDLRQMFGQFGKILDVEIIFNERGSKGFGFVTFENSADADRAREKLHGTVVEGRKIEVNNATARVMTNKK"}
{"Oligonucleotide": "GGGAGUUCUACAGUCCGACGAUCUAUUCUGCAGAAAAUUAAUUGAAAUACCUAUUCAAGAAGAUAGUUGUAAAGAUAUUGUAUCUCCUUUAAUAUACUCCUUAAAAAUGUAUGUUGGUUUAGCGUUGUUUUGUUGGAAUUCUCGGGUGCCAA", "RBNS enrichment (R)": 0.789}
{"Oligonucleotide": "GGGAGUUCUACAGUCCGACGAUCCUGUCCACGCUUAGGAGCCAAGCCGGGAAUGCAUUAAUCAUUUCUUCGUUAACAGAGGAAUCUGCUCUGCAUGGCAUUUCUCCAAGUGAAGACAGGCUUCUUUUUUUUUUUGGAAUUCUCGGGUGCCAA", "RBNS enrichment (R)": 0.475}
{"Oligonucleotide": "GGGAGUUCUACAGUCCGACGAUCUUUCACUCCACUAAUGCUGUCUCAGUGUUUUCUCUCUCUCUCUUUCGAGCUUGCACUCCGGUACCCGACCCGGCGCCCUGGCCCAUCCCAUGCCGGGGGGCCAGUGGAAAUGGAAUUCUCGGGUGCCAA", "RBNS enrichment (R)": 0.86}
{"Oligonucleotide": "GGGAGUUCUACAGUCCGACGAUCGGCCAGCAAUGUAUUCCGGGGAUGUAUUCUGGGGUCUGAGGGCCCUGGCCCAUUCUGAGAAAUGGAGCUGUAGCUAUGGCCUAGCCAGCACCCCCAGUGCUCGCUCAUGGUGGAAUUCUCGGGUGCCAA", "RBNS enrichment (R)": 0.242}
{"data": "Other studies, line by line"}
{"Substance": "PhoQ, residues 284 288 289 292 302 303 SSYNSA", "target": "PhoP, residues 12 14 15 18 19 IQSYL (Escherichia coli, UniProt P23836)", "assay": "Sort-seq, refers to: YFP reporter", "system": "E. coli", "conditions": "PhoQ-PhoP variant library, added: 10 µM Mg2+", "scale": "reference: high Mg2+ state, higher = stronger signaling", "measurement": "fold induction", "result": 18.5}
{"note": "Excerpt of the above (sample 1):"}
{"Oligonucleotide": "GAGGGTTTCCTTCTCCTGACGTGCTAG", "fitted relative affinity [z-score]": 1.34}
{"Oligonucleotide": "GACGATTTCAGTTTCGTGACGTGCTAG", "fitted relative affinity [z-score]": 4.48}
{"Oligonucleotide": "TTAGGTATCCGTTTCCTTTAGTGCTAG", "fitted relative affinity [z-score]": 1.98}
